Measurements gathered from unrelated publications.
Each line is one published result; not all experiments were run side by side.
Target: Calcium/calmodulin-dependent protein kinase type 1 (CAMK1, Homo sapiens, UniProt Q14012)

For Cc1cccc(-c2ccc3nc(NC(=O)C4CCCO4)nn3c2)c1 (stereo not shown), the remaining activity was 74% (enzyme activity, Dundee kinase panel; 10 µM).
With C=CC(=O)Nc1cccc(-c2cnc3[nH]cc(C(=O)NC(C)(C)C)c3n2)c1 the inhibition was 4% (kinase activity; 0.1 µM).
For NC(=O)[C@@H](O)C[C@H]1CCc2sc3ncnc(O[C@H]4CC[C@H](N5CCOCC5)CC4)c3c21, the inhibition was 18% (enzyme activity, inhibitor; 10 µM).
The remaining activity of O=C=[N][Ru-4]123([n]4c5ccc(O)cc5c5c6c(c7cc(F)c[n+]1c7c54)C(=O)NC6=O)[S+]1CC[S+]2CC[S+]3CC1 (stereo not shown) is reported as 108% (enzyme activity; 100 nM, human enzyme, with: 10 µM ATP; reference: untreated).
For COc1cc(Nc2nc(C)cc(-c3cnn4nc(OC)ccc34)n2)cc(C(F)(F)F)c1, the remaining activity was 75% (inhibitor; 1 µM; reference: control).
With C=CC(=O)N1CCc2ccc(-n3c(=O)ccc4cnc5ccc(-c6cnn(C)c6)cc5c43)cc21 the remaining binding was 100% (KINOMEscan; 1 µM; reference: DMSO control).
With COc1ccc(O)cc1-c1c[nH]c2ncc(-c3cncc(C(=O)N(C)C)c3)cc12 the inhibition was -7.4% (binding, competition with immobilised ligand; 0.2 µM).
For Cc1nc2c(F)cc(-c3nc(Nc4ccc(CNC(=O)CCCCCCC(=O)NO)cc4)ncc3F)cc2n1C(C)C, the inhibition was 43% (enzyme activity, inhibitor; 1 µM).
CNC(=O)C1CCN(c2cc(C)c(F)cc2NC(=O)c2ccc(-c3cc(O)ccc3C)c(C)c2)CC1 gave a remaining binding of 96% (binding, competition with immobilised ligand; 1 µM).
With COc1c(OCCCN2CCOCC2)ccc2c1N=C(NC(=O)c1cnc(N)nc1)N1CCN=C21 the remaining activity was 122% (kinase activity, inhibitor; 1 µM; reference: untreated control).
With C=CC(=O)N1CCCC(n2c(=O)c3ncccc3n(Cc3ccc(Oc4ccccc4)cc3)c2=O)C1 (stereo not shown) the remaining binding was 100% (cell-free assay, competition with immobilised ligand; 1 µM).
The inhibition of Cc1cccc(O[C@H]2CCC[C@@H](C(C)CNCc3ccncc3)C2)c1 (relative stereo) is reported as -2% (enzyme activity; 10 µM).
c1ccc2c(Nc3cc(C4CCC4)[nH]n3)nc(Nc3ccc4nc[nH]c4c3)nc2c1 has a remaining activity of 20% (enzyme activity, inhibitor; 0.25 µM).
For CNC(=O)C[C@H](Cc1ccc(C#N)cc1)NC(=O)c1cc(-c2ccc(CN[C@H](C)c3ccc(C)cc3)o2)ccc1Cl, “activity vs control” read 126% (enzyme activity, inhibitor; 1 µM).
With Nc1ncc2c(n1)-c1c([nH]c3ccc(C4=CCOCC4)cc13)CCC2 the remaining binding was 88% (binding, competition with immobilised ligand; 1 µM).
C[C@H]1CN(C(=O)c2cn(-c3ccnc(N)n3)c3cc(C#CC4(O)CCCCC4)ccc23)CCN1 gave an inhibition of 90% (enzyme activity, inhibitor; 1 µM).
For Cc1ccc(C)c(-c2ccc3nc(NC(=O)C4CCCCC4)nn3c2)c1, the remaining activity was 75% (enzyme activity, Dundee kinase panel; 10 µM).
O=C(Cc1ccc(OCc2ccccc2)cc1)NC1(C(=O)O)CCN(C(=O)c2ccc(-c3cccc(Cl)c3)cc2)CC1: “activity vs control” 111% (enzyme activity, inhibitor; 10 µM).
The remaining activity of Nc1nc(Nc2ccccc2)sc1C(=O)c1ccccc1 is reported as 34% (enzyme activity, inhibitor; 10 µM).

For quick reference, copied from above:
With COc1c(OCCCN2CCOCC2)ccc2c1N=C(NC(=O)c1cnc(N)nc1)N1CCN=C21 the remaining activity was 122% (kinase activity, inhibitor; 1 µM; reference: untreated control).
With C=CC(=O)N1CCCC(n2c(=O)c3ncccc3n(Cc3ccc(Oc4ccccc4)cc3)c2=O)C1 (stereo not shown) the remaining binding was 100% (cell-free assay, competition with immobilised ligand; 1 µM).
